Results gathered from unrelated publications.
Each numbered part is a random draw from the data of one study; scales do not carry over between parts.
Sequence of UniProt P28566 (whole entry, looked up): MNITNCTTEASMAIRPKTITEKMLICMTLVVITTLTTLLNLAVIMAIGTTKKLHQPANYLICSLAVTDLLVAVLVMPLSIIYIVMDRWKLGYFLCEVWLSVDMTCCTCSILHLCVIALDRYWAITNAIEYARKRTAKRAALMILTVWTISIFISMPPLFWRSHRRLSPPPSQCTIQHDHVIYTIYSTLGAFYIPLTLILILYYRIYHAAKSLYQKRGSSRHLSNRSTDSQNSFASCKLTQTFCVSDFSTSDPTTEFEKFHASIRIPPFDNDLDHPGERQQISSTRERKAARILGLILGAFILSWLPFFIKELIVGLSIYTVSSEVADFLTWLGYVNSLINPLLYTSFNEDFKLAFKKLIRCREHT
Sequence of UniProt P46098 (whole entry, looked up): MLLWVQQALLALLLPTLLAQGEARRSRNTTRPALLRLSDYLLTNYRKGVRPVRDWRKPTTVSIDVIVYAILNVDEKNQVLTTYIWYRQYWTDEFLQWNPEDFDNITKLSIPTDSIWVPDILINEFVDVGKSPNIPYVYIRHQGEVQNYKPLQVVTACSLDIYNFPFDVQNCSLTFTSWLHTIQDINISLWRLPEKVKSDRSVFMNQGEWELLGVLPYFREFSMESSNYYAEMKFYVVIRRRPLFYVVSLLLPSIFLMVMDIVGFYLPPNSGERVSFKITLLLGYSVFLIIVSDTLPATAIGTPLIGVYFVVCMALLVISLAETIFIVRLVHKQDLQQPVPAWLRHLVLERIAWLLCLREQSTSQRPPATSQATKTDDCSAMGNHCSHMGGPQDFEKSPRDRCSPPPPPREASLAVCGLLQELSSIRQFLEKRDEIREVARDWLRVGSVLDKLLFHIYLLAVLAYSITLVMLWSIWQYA
Sequence of UniProt P47898 (whole entry, looked up): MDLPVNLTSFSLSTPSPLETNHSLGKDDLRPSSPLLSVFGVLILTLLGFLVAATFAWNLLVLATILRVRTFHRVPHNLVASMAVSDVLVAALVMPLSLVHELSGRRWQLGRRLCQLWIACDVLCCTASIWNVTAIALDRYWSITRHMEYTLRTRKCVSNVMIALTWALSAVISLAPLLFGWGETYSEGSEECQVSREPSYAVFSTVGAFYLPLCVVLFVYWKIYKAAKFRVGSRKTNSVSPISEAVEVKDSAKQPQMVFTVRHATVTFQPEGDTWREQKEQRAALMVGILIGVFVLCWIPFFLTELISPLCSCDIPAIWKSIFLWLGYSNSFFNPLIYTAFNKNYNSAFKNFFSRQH
Sequence of UniProt P28221 (whole entry, looked up): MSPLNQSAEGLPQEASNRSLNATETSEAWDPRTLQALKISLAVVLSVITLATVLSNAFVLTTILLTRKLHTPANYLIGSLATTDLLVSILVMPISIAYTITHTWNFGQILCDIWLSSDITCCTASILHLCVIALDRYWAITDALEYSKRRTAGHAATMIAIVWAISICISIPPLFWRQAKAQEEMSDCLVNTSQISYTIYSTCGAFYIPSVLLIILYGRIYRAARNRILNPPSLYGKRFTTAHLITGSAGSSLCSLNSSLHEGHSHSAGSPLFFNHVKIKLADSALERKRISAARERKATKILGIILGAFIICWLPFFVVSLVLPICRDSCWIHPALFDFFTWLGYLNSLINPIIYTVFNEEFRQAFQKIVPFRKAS
Sequence of UniProt P41595 (whole entry, looked up): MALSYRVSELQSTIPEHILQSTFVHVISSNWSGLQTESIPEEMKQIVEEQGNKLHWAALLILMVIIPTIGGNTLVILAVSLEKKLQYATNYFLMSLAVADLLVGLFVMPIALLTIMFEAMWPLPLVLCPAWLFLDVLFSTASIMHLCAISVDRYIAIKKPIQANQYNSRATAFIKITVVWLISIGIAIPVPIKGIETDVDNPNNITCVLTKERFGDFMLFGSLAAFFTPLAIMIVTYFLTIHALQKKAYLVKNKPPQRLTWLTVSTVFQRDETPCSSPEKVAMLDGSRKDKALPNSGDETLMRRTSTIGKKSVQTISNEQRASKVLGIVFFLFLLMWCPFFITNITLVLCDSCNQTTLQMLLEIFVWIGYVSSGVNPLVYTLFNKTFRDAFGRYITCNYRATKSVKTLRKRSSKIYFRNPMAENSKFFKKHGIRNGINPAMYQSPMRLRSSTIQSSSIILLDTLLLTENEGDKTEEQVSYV

Series 1
Species: human
Matrix: microsomes or S9
Concentration: 2 µM
Time: 0.5 h
Compound	remaining compound [%]
CCCn1nc(C)c(-c2cncn2CC(c2ccccc2Cl)N(C)C)c1C (stereo not shown)	43.1
CC(=O)N(c1nc(COC(=O)/C=C/c2cnn(C)c2)cs1)c1c(C)cc(C)cc1C	0.441
Cc1c(C)n(CCN2CCOCC2)c2ncn3nc(-c4ccc(Cl)cc4Cl)nc3c12	> 100
COc1cc(C2CCN(C(=O)OC(C)(C)C)CC2)ccc1Nc1ncc(Cl)c2[nH]c3c(S(=O)(=O)C(C)C)cccc3c12	46.8
CC(C)c1ccc(CNC(=O)CCCCNS(=O)(=O)c2ccccc2)cc1	26.7
Cc1nn(C(C)(C)C)c(C)c1S(=O)(=O)N1CC(C)OC(C)(C)C1 (stereo not shown)	0.0276
CC(CC(=O)c1ccc2ccccc2c1)n1nnc(-c2ccccc2)n1 (stereo not shown)	3.16
CCn1cc(S(=O)(=O)N2CCC3(CCCCO3)CC2)cn1	> 100
COC(=O)c1nc(C2CC(C(C)(C)C)=NO2)cc(NC(C)=O)c1Cl (stereo not shown)	26.7
CCOC(=O)COc1cc(Br)c(C#N)cc1OCC	54.5
CCC(=O)Nc1ccc(C(=O)OCc2ccc(C(=O)c3ccccc3)cc2)cc1	64.2
Nc1nc2n(c1C(=O)c1ccc3c(c1)CCCC3)CCC2	53
Clc1ccc(-c2nnc3ccc(Cl)nn23)c(Cl)c1	75.3
Cc1ccc(S(=O)(=O)n2cc(Br)c3c(N4C[C@@H](C)O[C@@H](C)C4)ncnc32)cc1	22.1
O=C(OC1CCc2ccccc2C1=O)c1ccccc1O (stereo not shown)	88.2

Series 2
Compound: COc1nc2ccc([C@@](O)(c3ccccc3)C3CCN(C(C)=O)CC3)cc2c(Cl)c1Cc1ccc(-n2cccn2)cc1
Observed: binding
Method: radioligand binding
Concentration: 10 µM
target	inhibition [%]
HTR2B (Homo sapiens, UniProt P41595)	18.7
HTR3A (Homo sapiens, UniProt P46098)	9.28
HTR1E (Homo sapiens, UniProt P28566)	-18.7
HTR5A (Homo sapiens, UniProt P47898)	-0.46
HTR1D (Homo sapiens, UniProt P28221)	5.9

Series 3
Organism: Sarcocystis neurona
Observed: parasite growth
Concentration: 10 µM
Setting: second screen
Baseline: untreated
Compound	log2 fold change
CC(C)c1ccc2c(c1)c(SC(C)(C)C)c(CC(C)(C)C(=O)O)n2Cc1ccc(Cl)cc1	0.00169
CC(C)[N+](C)(CCOC(=O)C1c2ccccc2Oc2ccccc21)C(C)C.[Br-]	0.49
Cc1cccc(CN2CCN(C(c3ccccc3)c3ccc(Cl)cc3)CC2)c1.Cl.Cl (stereo not shown)	0.61
Br.O=C1CC2(CCCC2)CC(=O)N1CCNCC1COc2ccccc2O1 (stereo not shown)	-0.56
COc1ccc(CN2CCN(C(c3ccc(F)cc3)c3ccc(F)cc3)CC2)c(OC)c1OC.Cl.Cl	-1.07
CN[C@@H]1[C@H](O)[C@H](NC)[C@H]2O[C@@]3(O)C(=O)C[C@@H](C)O[C@H]3O[C@@H]2[C@H]1O.Cl.Cl	0.39
CN1CCc2cc(Cl)c(O)cc2[C@@H](c2ccccc2)C1.Cl	0.64
C[N+]1(C)CCC(OC(=O)C(O)(c2ccccc2)C2CCCC2)C1.[Br-] (stereo not shown)	0.04
CC(C)NCC(O)COc1cccc2ccccc12.Cl (stereo not shown)	0.34
CCC1=C[C@@H]2CN(C1)Cc1c([nH]c3ccccc13)[C@@](C(=O)OC)(c1cc3c(cc1OC)N(C)[C@H]1[C@@](O)(C(=O)OC)[C@H](OC(C)=O)[C@]4(CC)C=CCN5CC[C@]31[C@@H]54)C2.O=C(O)C(O)C(O)C(=O)O.O=C(O)C(O)C(O)C(=O)O	0.18

Single results of other studies
Structure (SMILES)	species	dose	setting	quantity	result
CC(C)n1cnc(-c2ccc(F)cc2)c1-c1ncc(C(=O)Nc2ccc(N3CCN(C)CC3)cc2)[nH]1	human, idiopathic pulmonary fibrosis	30 mg once daily	trial, treatment-emergent	patients with chest discomfort	0%

Excerpt of the above (series 1):
Compound	remaining compound [%]
Cc1c(C)n(CCN2CCOCC2)c2ncn3nc(-c4ccc(Cl)cc4Cl)nc3c12	> 100
CCn1cc(S(=O)(=O)N2CCC3(CCCCO3)CC2)cn1	> 100
CCCn1nc(C)c(-c2cncn2CC(c2ccccc2Cl)N(C)C)c1C (stereo not shown)	43.1
COC(=O)c1nc(C2CC(C(C)(C)C)=NO2)cc(NC(C)=O)c1Cl (stereo not shown)	26.7
